# Measured values collected from several papers.
# Every numbered part comes from another study and shows a few of its results, in no order.

# Set 1 — method: universal PBM; form: double-stranded DNA, one strand shown; sample: in vitro; tested at: 600 nM; direction: higher = stronger binding
# Target: Sal-like protein 4, full length isoform A (SALL4, Homo sapiens, UniProt Q9UJQ4, residues 1-1053)
# Chain of UniProt Q9UJQ4 (whole entry, looked up): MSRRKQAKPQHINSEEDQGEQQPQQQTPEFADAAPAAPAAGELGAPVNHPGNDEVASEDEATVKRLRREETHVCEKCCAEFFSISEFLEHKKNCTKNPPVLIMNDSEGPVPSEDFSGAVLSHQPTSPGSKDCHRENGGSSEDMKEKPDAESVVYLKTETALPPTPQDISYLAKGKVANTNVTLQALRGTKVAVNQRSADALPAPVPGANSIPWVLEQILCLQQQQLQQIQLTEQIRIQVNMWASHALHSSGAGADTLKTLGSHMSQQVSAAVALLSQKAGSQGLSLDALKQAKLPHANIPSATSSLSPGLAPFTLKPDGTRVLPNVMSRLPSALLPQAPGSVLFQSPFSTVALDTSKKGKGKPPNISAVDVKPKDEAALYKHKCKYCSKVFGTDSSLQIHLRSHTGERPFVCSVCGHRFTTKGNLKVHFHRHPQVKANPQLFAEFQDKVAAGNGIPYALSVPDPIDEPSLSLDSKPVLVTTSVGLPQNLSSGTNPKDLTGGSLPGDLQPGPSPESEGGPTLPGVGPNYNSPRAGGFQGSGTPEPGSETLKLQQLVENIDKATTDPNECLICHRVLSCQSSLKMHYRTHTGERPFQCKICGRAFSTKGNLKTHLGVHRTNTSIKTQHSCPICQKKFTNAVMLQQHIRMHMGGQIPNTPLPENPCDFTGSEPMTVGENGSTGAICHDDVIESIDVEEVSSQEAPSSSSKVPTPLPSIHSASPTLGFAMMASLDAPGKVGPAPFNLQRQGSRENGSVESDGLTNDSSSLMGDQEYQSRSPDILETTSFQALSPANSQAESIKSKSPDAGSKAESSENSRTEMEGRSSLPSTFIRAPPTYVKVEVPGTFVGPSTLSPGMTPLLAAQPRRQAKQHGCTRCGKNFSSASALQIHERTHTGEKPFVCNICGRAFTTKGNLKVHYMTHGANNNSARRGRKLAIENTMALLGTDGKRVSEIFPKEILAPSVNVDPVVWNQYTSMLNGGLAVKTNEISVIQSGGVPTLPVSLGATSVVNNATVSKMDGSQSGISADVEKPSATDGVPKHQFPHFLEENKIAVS
# Setting: 8-mer, flanks averaged, mean of replicates
Strand,E-score
CGAGGACG,-0.206
AAGTTGAA,0.0712
CAACGGTG,-0.354
ACTAGACG,0.18
CGCCTAAA,-0.0855
GAGCGTGA,-0.203
CACGATGC,-0.24

# Set 2 — method: RNA Bind-n-Seq; form: RNA; sample: in vitro; tested at: not given; relative to: input RNA pool; direction: higher = stronger binding
# Target: RING finger protein unkempt homolog, zinc fingers 1-6, GST-SBP tag (UNK, Homo sapiens, UniProt Q9C0B0, residues 30-357)
# Chain of UniProt Q9C0B0 (30-357, looked up): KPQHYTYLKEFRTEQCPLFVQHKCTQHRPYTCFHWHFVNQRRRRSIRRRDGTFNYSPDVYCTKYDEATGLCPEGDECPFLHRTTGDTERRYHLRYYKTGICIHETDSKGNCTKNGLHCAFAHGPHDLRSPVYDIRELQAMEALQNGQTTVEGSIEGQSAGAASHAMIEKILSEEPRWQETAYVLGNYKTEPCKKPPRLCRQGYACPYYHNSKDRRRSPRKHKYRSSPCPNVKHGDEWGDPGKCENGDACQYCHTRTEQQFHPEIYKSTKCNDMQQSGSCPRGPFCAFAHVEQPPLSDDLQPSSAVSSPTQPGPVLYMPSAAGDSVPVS
# Setting: RNA with constant flanks, human-mouse chimeric sites, ends assumed
Strand,bound/input enrichment [ratio]
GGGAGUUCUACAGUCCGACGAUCGCUCCUCCCCGCUCUGCAGCCUGGGGACACUGGGCUGCAUUUUUUUUCCAGCUUUCUUUUAAAACUCUCAGUGUAACUGUAUCCCGUGACAUUUCAUUUUUUUUAAAUAGUGUAUUUUUUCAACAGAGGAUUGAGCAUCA,5.84
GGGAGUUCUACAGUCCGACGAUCACCUCCCAGGCCUGGGACACCCCACCCCCGCUUUUUGGAAAGUUUUUGGCGUUUCUUUUCCUUCCCCAUACAAAGUGAUUACAGUUUCCCCCGCAAGGGUCUAUCGAUUCACCCUUCGGACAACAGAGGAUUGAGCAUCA,0.386
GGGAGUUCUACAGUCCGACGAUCCUGGCCUGGCCCUCCCCAGGGGCCUCCUUCUCUGCAUUCACUGCUUCUGCAUCAGAUACUUUCAGCUGCAACUCCCUACUGGGUGGGGCACCUAUCUCAGGCAGAAGGUUUUGGUACCCUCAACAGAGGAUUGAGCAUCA,0.171
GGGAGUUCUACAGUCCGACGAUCGUUGCCAGGUUCCGGUGCCGUUGGGCUCGGUUCUCUCCUGAGCUACGGUCCCUGGCACUCUCAAUCCGCCAUCCAACAAACAUGGAUCAGGUAAUGCAGUUUGUGGAGCCCAGCCGGCAGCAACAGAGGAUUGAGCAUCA,0.123
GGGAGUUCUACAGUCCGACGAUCCACGUGUCUGCAGUGCUUGAUGUGGACUACUCUCCCACUGGGAAGGAAUUUGUGUCUGCCAGCUUUGAUAAGUCUAUUAGAAUCUUUCCUGUGGACAAGAGCCGAAGCAGGGAGGUAUAUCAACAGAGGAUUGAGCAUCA,0.515
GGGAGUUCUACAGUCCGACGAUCGAUGAUAAUCACACAAACAAGUCACUGUUACAUGACCAGCCUUGGGAUUCUUCUCCUGAUUAAUAUUCUCCCUGGAACCACUGGUCAAGGGGAAUCAAGACGACAAGAACCUGGGGACUUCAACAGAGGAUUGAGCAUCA,0.136
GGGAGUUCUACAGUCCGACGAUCCCAAUUGUGGAGCAGUACUUGAAGACAAAGAAAAAUUCUAAUAAUUUAAUCAUGAAAUACAUUAGCUGCCGCCUGCUGACACUCAUCGUUAUACUGUUAGCGUGUAUCUACCUGGGCUAUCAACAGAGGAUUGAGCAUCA,0.726

# Set 3 — method: aptamer microarray, sandwich; form: DNA with 2'F-ANA; sample: in vitro; tested at: 200 nM; with: Cy3 exosite-II aptamer, 400 nM; direction: higher = stronger binding; strand: GGTTGGTGTGGTTGG
# Target: Prothrombin, mature alpha-thrombin (F2, Homo sapiens, UniProt P00734)
# Setting: whole 15-mer aptamer, many near background
Modification,mean fluorescence intensity
2'F-ANA at 2 3 6 7 8 15,800 a.u.
2'F-ANA at 1 3 6 8 10 12 13,94.4 a.u.
2'F-ANA at 1 2 4 5 6 9 10 15,48.9 a.u.
2'F-ANA at 2 3 5 6 7 9 11 12 13 14 15,124 a.u.
2'F-ANA at 1 3 5 7 9 10 13,47.1 a.u.
2'F-ANA at 1 8 11 13 14,82.8 a.u.
2'F-ANA at 2 3 5 7 9 10 12 13 14,50.5 a.u.
2'F-ANA at 1 10 11 12 14 15,125 a.u.

# Mixed results
Substance,target,test,system,setting,scale,endpoint,value
"PhoQ, residues 284 288 289 292 302 303 NLSRDF","PhoP, residues 12 14 15 18 19 NHFIF (Escherichia coli, UniProt P23836)","Sort-seq, item: YFP reporter",E. coli,"PhoQ-PhoP variant library, with: 10 µM Mg2+","relative to: high Mg2+ state, higher = stronger signaling",fold induction,3.62
